Results collected from several papers.
Each numbered part is a random draw from the data of one study; scales do not carry over between parts.

Sample 1 — method: protein binding microarray; molecule type: double-stranded DNA, one strand shown; sample: in vitro; concentration: not given; reference: not given; direction: higher = stronger binding
Target: Histone acetyltransferase KAT6A, both winged helices, GST fusion (KAT6A, Homo sapiens, UniProt Q92794, residues 1-181)
Notes: 8-mer, flanks averaged, mean of 2 arrays, mostly near background
Residues (chain): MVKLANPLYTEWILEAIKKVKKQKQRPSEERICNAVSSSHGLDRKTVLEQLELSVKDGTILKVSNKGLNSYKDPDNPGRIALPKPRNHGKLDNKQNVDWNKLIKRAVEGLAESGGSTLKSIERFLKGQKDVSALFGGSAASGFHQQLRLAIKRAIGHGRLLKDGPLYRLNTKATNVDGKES
`GTCTGCTA` gave an E-score of -0.181.
`AAAGGTTC` gave an E-score of -0.134.
For `TACTTGCA`, the E-score was -0.0997.
For `CCAGGGAC`, the E-score was -0.132.
`CTGGAGCC` gave an E-score of 0.0336.
`AACTTTAA` has an E-score of -0.0285.
The E-score of `CGCTTCTC` is reported as 0.227.
`AAATATTC` has an E-score of -0.132.

Sample 2 — method: RNA Bind-n-Seq; molecule type: RNA; sample: in vitro; concentration: 100 nM; reference: input RNA pool; direction: higher = stronger binding
Target: RING finger protein unkempt homolog, zinc fingers 1-6, SBP tag (UNK, Homo sapiens, UniProt Q9C0B0, residues 30-357)
Chain of UniProt Q9C0B0 (30-357, looked up): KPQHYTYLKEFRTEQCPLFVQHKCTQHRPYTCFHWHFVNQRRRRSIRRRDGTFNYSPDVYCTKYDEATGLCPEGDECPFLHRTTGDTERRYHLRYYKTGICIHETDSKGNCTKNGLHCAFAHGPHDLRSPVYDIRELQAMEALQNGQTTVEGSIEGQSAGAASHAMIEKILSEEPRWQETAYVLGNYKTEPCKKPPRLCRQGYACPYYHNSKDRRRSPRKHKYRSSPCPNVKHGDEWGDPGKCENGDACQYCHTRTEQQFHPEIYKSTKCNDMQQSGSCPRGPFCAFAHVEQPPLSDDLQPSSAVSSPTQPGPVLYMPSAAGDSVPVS
Notes: RNA with constant flanks, vertebrate orthologous sites, ends assumed
For `GGGAGUUCUACAGUCCGACGAUCAAAUAUACUUCAUGCCAUGGACUCCGUACCGCACGGAUACUUUGAUAGAAUAUGCUUCUCUGGAGGACUUCCAGAACGGACGCCAGCAGACGACGUACAAGCUCCCAAACCGAGUGGACGCAACAGAGGAUUGAGCAUCA`, the bound/input enrichment was 0.64 ratio.
With `GGGAGUUCUACAGUCCGACGAUCUUGGGACCAGCUCUCCAAACAAGAAUAGUAGUAAAAGAAAUAAGCAGAAUGAUAUUUGUAUAGAAAAAACAGAAGUUAAAUCAUGCAAGAUAAAUGCUGUCAGUGUUCCAGGUCCUAAAGCAACAGAGGAUUGAGCAUCA` the bound/input enrichment was 0.72 ratio.
With `GGGAGUUCUACAGUCCGACGAUCAUUUAAAAUGUAGCUAGUUAUAUUUAACAACCUCAUUUCUGAGUUCCUUUUUCAUUAAAGUAGCUUUCAUUUCUUUUAUUGCAGUUUUAAAAAUAUGAGUAAAUAUAAGGUUUGUGCCAGCAACAGAGGAUUGAGCAUCA` the bound/input enrichment was 0.328 ratio.
`GGGAGUUCUACAGUCCGACGAUCUAACUGAGUGCUUAAGCCGCCAACAGUUAUGCUAUUUAUUUGUGUCUGUAAGUUUGUACAUAGUAAUGCCAGCCUUGUUGCUGAAUUUUUUAUUUGGGGGUGGGGGGCUUAGUUUGAAUUCAACAGAGGAUUGAGCAUCA` gave a bound/input enrichment of 2.11 ratio.

Sample 3 — method: Sort-seq; item: YFP reporter; sample: E. coli; notes: PhoQ-PhoP variant library; added: 10 µM Mg2+; reference: high Mg2+ state; direction: higher = stronger signaling
Molecule: PhoQ, residues 284 288 289 292 302 303 ASSHFY
For PhoP, residues 12 14 15 18 19 LFHKL (Escherichia coli, UniProt P23836): fold induction read 8.96.
For PhoP, residues 12 14 15 18 19 QQAYL (Escherichia coli, UniProt P23836): fold induction read 21.2.
PhoP, residues 12 14 15 18 19 GMGLL (Escherichia coli, UniProt P23836) — fold induction: 1.94.

Sample 4 — method: universal PBM; molecule type: double-stranded DNA, one strand shown; sample: in vitro; concentration: not given; direction: higher = stronger binding
Target: Sal-like protein 4, full length isoform B (SALL4, Homo sapiens, UniProt Q9UJQ4-2, residues 1-616)
Notes: 8-mer, flanks averaged, mean of replicates
Target sequence (chain): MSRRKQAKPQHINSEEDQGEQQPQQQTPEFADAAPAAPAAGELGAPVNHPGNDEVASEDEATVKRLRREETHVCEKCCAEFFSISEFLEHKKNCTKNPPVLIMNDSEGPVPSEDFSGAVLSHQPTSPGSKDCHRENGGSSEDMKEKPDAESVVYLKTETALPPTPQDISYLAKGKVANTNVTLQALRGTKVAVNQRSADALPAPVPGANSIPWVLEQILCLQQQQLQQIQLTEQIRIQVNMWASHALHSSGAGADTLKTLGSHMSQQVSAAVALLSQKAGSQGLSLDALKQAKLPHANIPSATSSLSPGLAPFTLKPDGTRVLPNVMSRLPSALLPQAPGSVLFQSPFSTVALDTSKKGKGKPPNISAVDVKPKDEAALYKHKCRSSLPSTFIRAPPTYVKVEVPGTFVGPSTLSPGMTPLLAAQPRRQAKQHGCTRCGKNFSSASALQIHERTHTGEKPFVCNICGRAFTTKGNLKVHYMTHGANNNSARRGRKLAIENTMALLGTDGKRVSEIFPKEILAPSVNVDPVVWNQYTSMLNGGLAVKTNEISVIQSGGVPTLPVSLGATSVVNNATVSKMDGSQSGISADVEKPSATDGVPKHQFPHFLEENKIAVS
For `CTCTGATA`, the E-score was 0.116.
`CTCAGCCA` has an E-score of -0.114.
With `ACGATCAT` the E-score was 0.133.
For `ATCCTGGC`, the E-score was -0.133.
`AAGACCGT` gave an E-score of -0.107.
`ATTTTTGA` gave an E-score of 0.226.
`TCGCGAAA` has an E-score of -0.101.
The E-score of `AAAAGCTG` is reported as 0.0447.

Repeated from above (sample 1):
The E-score of `CGCTTCTC` is reported as 0.227.
`AAAGGTTC` gave an E-score of -0.134.
